Results pooled from the literature.
± gives the spread as reported. In brackets after ≈: the same amount, converted by molar mass.

O=C([O-])CN1CCN(CC(=O)[O-])CCN(C(CO)C(O)CO)CCN(CC(=O)[O-])CC1.[Dy+3] (stereo not shown) — total plasma clearance (ICP-MS; female cynomolgus monkey, plasma; intravenous bolus, 0.1 mmol/kg, lanthanide mixture, geometric mean): 1.83 mL/min/kg
CC(C)C[C@H](NC(=O)[C@@H](CCCCNC(=O)[C@@H](Cc1ccccc1)NC(=O)CCCCCCCNC(=O)CN1CCN(CC(=O)O)CCN(CC(=O)O)CCN(CC(=O)O)CC1)NC(=O)[C@H](Cc1ccc(O)cc1)NC(=O)[C@H](CO)NC(=O)[C@H](Cc1c[nH]c2ccccc12)NC(=O)[C@H](Cc1c[nH]cn1)NC(=O)[C@@H]1CCC(=O)N1)C(=O)N[C@@H](CCCNC(=N)N)C(=O)N1CCC[C@H]1C(=O)NCC(N)=O [indium-111 labelled] — tissue uptake (biodistribution; male athymic nude mice, DU-145 prostate cancer xenograft, stomach; intravenous, 0.037 MBq, 2 h post-injection): 0.26 ± 0.15 %ID/g
N[C@@H](CNC(=O)N[C@@H](CS)C(=O)NCC(=O)O)C(=O)O — brain-to-plasma AUC ratio (C57BL/6 mouse; intraperitoneal, dose not given): 0.63 ± 0.4
CCCCN1C(=O)c2cccc3c(NCCCCCCCCCCN4CCOCC4)ccc(c23)C1=O — molar extinction coefficient (dioxane): 12600 M⁻¹ cm⁻¹
[2H]C([2H])([2H])C1(C([2H])([2H])[2H])NC(=O)N(c2ccc(F)c(C(C)(F)F)c2)C1=O — plasma concentration (male Swiss outbred mice, plasma; oral, 100 mg/kg, 48 h): 32100 ± 1690 ng/mL
CN(O)C(=O)CCC(=O)NCCCN(CCCCN(CCCNC(=O)CCC(=O)N(C)O)C(=O)CCC(=O)N(C)O)C(=O)CCC(=O)N(C)O.[89Zr] — intact compound (0.9 % NaCl saline; 3 days, pH 4.5, 37 °C): 99.9 ± 0.1%
CNC(=O)C[C@H](Cc1ccc(C#N)cc1)NC(=O)c1cc(-c2ccc(CN[C@H](C)c3ccc(C)cc3)o2)ccc1Cl — blood clearance (rat liver microsomes; 1 µM): 65 mL/min/kg
C=C(NC(=O)c1csc(-c2nc3c(cc2O)-c2nc(cs2)C(=O)NC(C(C)O)C(=O)NC(=C(C)OC)c2nc(cs2)C(=O)NC2c4nc(cs4)C(=O)NC(COC(=O)c4c5c6c(cccc6n4O)COC(=O)C(OC4CC(C)(O)C(N(C)C)C(C)O4)C2OC5)c2nc-3cs2)n1)C(N)=O (stereo not shown) — half-life (Sprague-Dawley rat, both sexes, plasma; intravenous infusion, 18 mg/kg single dose): 371 ± 22.8 min
C=CC(=O)Nc1cccc(Cn2ncc3cnc(Nc4cnn(CCOC)c4)nc32)c1 — binding (human LOK; KINOMEscan; 100 nM): 100%
O=C(NS(=O)(=O)c1cccs1)c1cc2ccccc2n1Cc1ccc(Br)c2ccccc12 — MRT(0-inf) (Sprague-Dawley rat, male, plasma; intravenous, 2 mg/kg): 31.1 min
NC(=O)CN(CCc1ccc(Cl)cc1)C(=O)CN(CCc1ccc(Cl)cc1)C(=O)CN(CCc1ccc(Cl)cc1)C(=O)CN(CCc1ccc(Cl)cc1)C(=O)CN(CCc1ccc(Cl)cc1)C(=O)CN(CCc1ccc(Cl)cc1)C(=O)CN(CCC(=O)O)C(=O)CN(CCC(=O)O)C(=O)CN(CCC(=O)O)C(=O)CN(CCC(=O)O)C(=O)CN(CCC(=O)O)C(=O)CNCCC(=O)O — equilibrium concentration (Ce) (in situ AFM; HCl solution on mica; pH 2.8, room temperature, 2D phase solubility): 0.05 µM
O=C(Nc1cnccc1-c1ccc([18F])cc1)c1ccnc(NC(=O)C2CC2)c1 — SUV (ex vivo gamma counting; GSK-3β transgenic mice, late-stage, urine; intravenous, 120 min, mean, no P-gp inhibitor): 31.7
O=C([O-])CN1CCN(CC(=O)O)CCN(CC(=O)[O-])CCN(CC(=O)O)CC1.[64Cu+2] — blood distribution half-life (dynamic micro-PET imaging; rat, chronic myocardial infarction, blood; intravenous): 2.5 ± 0.4 min
Brc1cccc(CNc2nc(NCc3ccccc3)c3ccccc3n2)c1 — solubility (aqueous buffer; pH 6.2): 0.25 µg/mL (≈ 0.596 µM)
CCC1C=C(C)C(O)C(C)CC(OC)C2OC(O)(C(=O)C(=O)N3CCCCC3C(=O)OC(C(C)=CC3CCC(O)C(OC)C3)C(C)C(O)CC1=O)C(C)CC2OC (stereo not shown) — blood concentration (C57BL/6 mouse, blood; topical, dose not given, 1 h, daily dosing for 4 days): not detected
C/C(N)=N/C(=N\S(=O)(=O)c1ccc(C(F)(F)F)cc1)N1C[C@H](c2ccccc2)C(c2ccc(Cl)cc2)=N1 — AUC(0-inf) (Sprague-Dawley rat, male, plasma; intravenous, 2 mg/kg): 2800 ng·h/mL
COCC1CN(C2CCN(c3cc(OC)c(Nc4ncc(Br)c(Nc5ccc6c(c5P(C)(C)=O)OCCO6)n4)cc3C)CC2)C1 — adverse events (first-in-human trial; human; oral, 150 mg once daily; treatment-related leading to dose reduction): 0%
CCCCN1C(=O)c2cccc3c(NCCN4CCOCC4)ccc(c23)C1=O — molar extinction coefficient (Toluene): 5570 M⁻¹ cm⁻¹
C=Cc1c(C)c2cc3nc(c(CC(=O)[O-])c4[n-]c(cc5nc(cc1[n-]2)C(C)=C5CC)c(C)c4C(=O)[O-])C(CCC(=O)[O-])C3C.[Cu+2].[Na+].[Na+].[Na+] (stereo not shown) — time to visible green colour in bladder (mouse; oral, dose not given): ≤ 72 h
COC1CN([C@H]2CC[C@H]([C@@]3(C)Oc4c(Cl)cc(C(=O)NCc5c(SC)cc(C)[nH]c5=O)c(C)c4O3)CC2)C1 — log2 fold change (RNA-seq, measured: CREB3L3; human, whole blood; dose not given, 24 h; reference: pretreatment baseline): 6.68
CCCCN1C(=O)c2cccc3c(NCCCCCCCCN4CCOCC4)ccc(c23)C1=O — molar extinction coefficient (ethyl acetate): 12200 M⁻¹ cm⁻¹
CCCC[C@H](OC(C)=O)c1ccccc1C(=O)O — clearance (beagle dogs, both sexes, whole blood; intravenous, 1.5 mg/kg single dose): 21.7 ± 2.02 mL/min/kg
[123I]c1ccc2nc(-c3ccc(-n4ccnn4)nc3)cn2c1 — tracer uptake (male Wistar rat, stomach; intravenous, 4 MBq, 24 h): 0.024 %ID/g
N=C(N)NCCC[C@@H]1NC(=O)[C@H](CO)NC(=O)[C@@H](NC(=O)[C@H](CO)NC(=O)[C@H](CO)NC(=O)[C@H](Cc2c[nH]c3ccccc23)NC(=O)CNC(=O)[C@H](CO)NC(=O)[C@@H](N)Cc2c[nH]c3ccccc23)CSSC[C@@H](C(=O)NCC(=O)O)NC(=O)[C@H](CO)NC1=O — Tmax (patients, plasma; intravenous, 5 mg/kg, thrice weekly, median): 6.6 min
Oc1ccc([C@@H]2Oc3ccc(O)cc3[C@@H]3CCC[C@@H]32)cc1 — AUC(all) (mouse, plasma; intravenous, 1 mg/kg): 0.85 µM·h
CN1CCC[C@]1(C)/C=C/S(=O)(=O)NC(=O)Nc1c2c(cc3c1C(O)CC3)CCC2 (stereo partly shown) — AUC(0-t) (human, plasma; oral, 12.5 mg twice daily of parent drug, day 14, metabolite of dosed drug): 78700 ng·h/mL
C=CC(=O)Nc1cc(Nc2nccc(-c3c[nH]c4ccccc34)n2)c(OC)cc1N(C)CCN(C)C — recovery (storage stability; human plasma; 24 h, on ice, medium QC level): 78.5%
C=CC(=O)N1CCCC(n2c(=O)c3ncccc3n(Cc3ccc(Oc4ccccc4)cc3)c2=O)C1 (stereo not shown) — hepatocyte CLint (metabolic stability; male beagle dog, hepatocytes; 1 µM): 14.2 µL/min/10⁶ cells
Cc1cc(C(=O)N[C@@H](CC(=O)NC(C)(C)C)C(=O)NCCNC(=O)c2cc(-c3ccccc3)ccn2)no1 — mean residence time (mouse, plasma; intravenous, 0.1 mg/kg): 0.27 h
O=C(Nc1cnccc1-c1ccc([18F])nc1)c1ccnc(NC(=O)C2CC2)c1 — mean SUV (ex vivo biodistribution, gamma counting; GSK-3β overexpressing transgenic mouse, early stage, cecum; intravenous, 120 min post-injection, added: tariquidar 15 mg/kg iv, at least 120 min before tracer): 2.46
CCCCN1C(=O)c2cccc3c(NCCCCCCN4CCOCC4)ccc(c23)C1=O — molar extinction coefficient (toluene): 12100 M⁻¹ cm⁻¹

Excerpt of the above:
C=CC(=O)N1CCCC(n2c(=O)c3ncccc3n(Cc3ccc(Oc4ccccc4)cc3)c2=O)C1 (stereo not shown) — hepatocyte CLint (metabolic stability; male beagle dog, hepatocytes; 1 µM): 14.2 µL/min/10⁶ cells
C=CC(=O)Nc1cc(Nc2nccc(-c3c[nH]c4ccccc34)n2)c(OC)cc1N(C)CCN(C)C — recovery (storage stability; human plasma; 24 h, on ice, medium QC level): 78.5%
CCCCN1C(=O)c2cccc3c(NCCCCCCCCCCN4CCOCC4)ccc(c23)C1=O — molar extinction coefficient (dioxane): 12600 M⁻¹ cm⁻¹
C/C(N)=N/C(=N\S(=O)(=O)c1ccc(C(F)(F)F)cc1)N1C[C@H](c2ccccc2)C(c2ccc(Cl)cc2)=N1 — AUC(0-inf) (Sprague-Dawley rat, male, plasma; intravenous, 2 mg/kg): 2800 ng·h/mL
